{"data": "Assay results gathered from unrelated publications", "cell line": "HeLa", "note": "Protocols differ between the studies behind these lines. Numbers after ± are the reported error."}
{"Compound": "CC1=C(I)C(C)=[N+]2C1=C(c1ccc(OCCn3cc(CNC(=O)CSC[C@H](NC(=O)c4ccc(-c5nnc(C)nn5)cc4)C(=O)N[C@H](CCCNC(=N)N)C(=O)N[C@@H](CC4CCCCC4)C(=O)N[C@H](CCCNC(=N)N)C(=O)N[C@@H](CC4CCCCC4)C(=O)N[C@H](CCCNC(=N)N)C(=O)N[C@@H](CC4CCCCC4)C(=O)N[C@H](CCCNC(=N)N)C(N)=O)nn3)cc1)c1c(C)c(I)c(C)n1[B-]2(F)F", "effect on": "phototoxicity", "time": "2 h plus 18 h", "setting": "2.5% FBS", "with": "irradiation 525 nm for 160 s", "IC50": "598 ± 37 nM"}
{"Compound": "Cc1nn(-c2ccccc2)c(O)c1C(c1cccc([N+](=O)[O-])c1)c1c(C)nn(-c2ccccc2)c1O", "effect on": "cell growth or viability", "method": "MTT", "time": "48 h", "IC50": "32400 nM"}
{"Compound": "CC(=O)O[C@H]1C[C@H](O[C@H]2[C@@H](O)C[C@H](O[C@H]3[C@@H](O)C[C@H](O[C@H]4CC[C@@]5(C)[C@H](CC[C@@H]6[C@@H]5CC[C@]5(C)[C@@H](C7=CC(=O)OC7)[C@@H](O)C[C@]65O)C4)O[C@@H]3C)O[C@@H]2C)O[C@H](C)[C@H]1O[C@@H]1O[C@H](CO)[C@@H](O)[C@H](O)[C@H]1O", "effect on": "cell growth or viability", "method": "MTT", "time": "48 h", "IC50": "160 nM"}
{"Compound": "CC(C)C[C@H](NC(=O)[C@H](C)NC(=O)[C@H](CCCCN)NC(=O)[C@H](CC(C)C)NC(=O)[C@H](C)NC(=O)[C@H](CC(C)C)NC(=O)[C@H](CCCCN)NC(=O)[C@H](CC(C)C)NC(=O)[C@H](C)NC(=O)[C@H](CC(C)C)NC(=O)[C@@H](N)CCCCN)C(=O)N[C@@H](CCCCN)C(=O)N[C@@H](C)C(=O)N[C@@H](C)C(=O)N[C@@H](CC(C)C)C(=O)N[C@@H](CCCCN)C(=O)N[C@@H](CC(C)C)C(=O)N[C@@H](C)C(N)=O", "effect on": "cytotoxicity", "IC50": "1000 nM"}
{"Compound": "O=C(Cc1ccc2ccccc2c1)N[C@H](Cc1ccc(O)cc1)C(=O)N[C@H](Cc1ccccc1)C(=O)N[C@H](Cc1ccccc1)C(=O)N[C@H](Cc1ccc(OP(=O)(O)O)cc1)C(=O)O", "effect on": "cell growth or viability", "method": "MTT", "IC50": "301 µg/mL"}
{"Compound": "CCCCCCCCc1ccc(C(=O)N[C@@H](CO)C(=O)N[C@H](C(=O)N[C@@H](C)C(=O)N[C@H](C(N)=O)[C@@H](C)CC)[C@@H](C)OP(=O)(O)O)cc1", "effect on": "cell growth or viability", "method": "MTT", "time": "72 h", "IC50": "38900 nM"}
{"Compound": "CC(C)C[C@H](NC(=O)[C@H](CCCCN)NC(=O)[C@H](CC(C)C)NC(=O)[C@H](CC(C)C)NC(=O)[C@H](CCCCN)NC(=O)[C@H](CCCCN)NC(=O)[C@H](CC(C)C)NC(=O)[C@H](CC(C)C)NC(=O)[C@H](CCCCN)NC(=O)[C@H](CC(C)C)NC(=O)[C@H](CC(C)C)NC(=O)[C@H](CCCCN)NC(=O)[C@H](CCCCN)NC(=O)[C@H](CC(C)C)NC(=O)[C@@H](N)CSSC[C@H](N)C(=O)N[C@@H](CC(C)C)C(=O)N[C@@H](CCC(=O)O)C(=O)N[C@@H](CCC(=O)O)C(=O)N[C@@H](CC(C)C)C(=O)N[C@@H](CC(C)C)C(=O)N[C@@H](Cc1c[nH]cn1)C(=O)N[C@@H](Cc1c[nH]cn1)C(=O)N[C@@H](CC(C)C)C(=O)N[C@@H](CCC(=O)O)C(=O)N[C@@H](CCC(=O)O)C(=O)N[C@@H](CC(C)C)C(=O)N[C@@H](CC(C)C)C(=O)N[C@@H](Cc1c[nH]cn1)C(=O)N[C@@H](Cc1c[nH]cn1)C(N)=O)C(N)=O", "effect on": "cell growth or viability", "method": "MTT", "pH": "pH 7.4", "IC50": "> 100000 nM"}
{"Compound": "O=C(c1ccccc1O)c1[nH]c(Cl)c(Cl)c1-n1c(C(=O)c2ccccc2O)cc(Cl)c1Cl", "effect on": "cell growth or viability", "method": "resazurin", "time": "24 h", "IC50": "4.2 µg/mL"}
{"Compound": "COc1cc(C=CC(=O)CC(=O)C=Cc2ccc(OC(=O)CCC(=O)OC3OC4OC5(C)CCC6C(C)CCC(C3C)C46OO5)c(OC)c2)ccc1OC(=O)CCC(=O)OC1OC2OC3(C)CCC4C(C)CCC(C1C)C24OO3 (stereo not drawn)", "effect on": "cell growth or viability", "method": "MTT", "IC50": "2410 nM"}
{"note": "Excerpt of the above:"}
{"Compound": "CCCCCCCCc1ccc(C(=O)N[C@@H](CO)C(=O)N[C@H](C(=O)N[C@@H](C)C(=O)N[C@H](C(N)=O)[C@@H](C)CC)[C@@H](C)OP(=O)(O)O)cc1", "effect on": "cell growth or viability", "method": "MTT", "time": "72 h", "IC50": "38900 nM"}
